Measurements of several laboratories.
Compare with care: the assays were run in different laboratories. ± marks the error that the study gave.

SMILES = N=C(N)NCCC[C@@H]1NC(=O)[C@H](CCCCNC(=O)CON=C[C@H](F)[C@@H](O)[C@H](O)[C@H](O)CO)NC(=O)[C@@H](Cc2ccc(O)cc2)NC(=O)[C@H](CC(=O)O)NC(=O)CNC1=O [fluorine-18 labelled]; system = nude mice U-87 MG tumour, intestine; setting = intravenous, 0.5 h; tissue uptake = 0.5 ± 0.02 %ID/g
SMILES = CCCC[C@H](NC(=O)CNC(=O)CNC(=O)CN1CCN(CC(=O)O)CCN(CC(=O)O)CCN(CC(=O)O)CC1)C(=O)N[C@H]1CC(=O)NCCCC[C@@H](C(N)=O)NC(=O)[C@H](Cc2c[nH]c3ccccc23)NC(=O)[C@H](CCCNC(=N)N)NC(=O)[C@@H](Cc2ccccc2)NC(=O)[C@H](Cc2c[nH]cn2)NC1=O [gallium-67 labelled]; system = female C57 mice, B16/F1 melanoma, bone; setting = intravenous, 0.037 MBq, 4 h; tissue uptake = 0.87 ± 0.09 %ID/g
SMILES = O=C([O-])CN1CCN(CC(=O)[O-])CCN(CC(=O)[O-])CCN(CC(=O)[O-])CC1.[64Cu+2]; system = healthy athymic nude mice, muscle; setting = intravenous, 15 min; tissue uptake = 0.72 %ID/g
SMILES = CCCC[C@@H]1NC(=O)[C@@H](NC(=O)[C@H](CCC(=O)O)NC(=O)CNC(=O)CN2CCN(CC(=O)O)CCN(CC(=O)O)CCN(CC(=O)O)CC2)CCCCNC(=O)C[C@@H](C(N)=O)NC(=O)[C@H](C(C)C)NC(=O)[C@@H]2CCCN2C(=O)[C@H](CCCNC(=N)N)NC(=O)CNC(=O)[C@H](Cc2c[nH]c3ccccc23)NC(=O)[C@H](CCCNC(=N)N)NC(=O)[C@@H](Cc2ccccc2)NC(=O)[C@H](Cc2c[nH]cn2)NC(=O)[C@H](CCC(=O)O)NC1=O [gallium-67 labelled]; system = C57 mice with B16/F1 melanoma, spleen; setting = intravenous, 0.037 MBq, 2 h; tissue uptake = 0.09 ± 0.08 %ID/g
SMILES = CCCC[C@H](NC(=O)CNC(=O)CNC(=O)CN1CCN(CC(=O)O)CCN(CC(=O)O)CC1)C(=O)N[C@H]1CC(=O)NCCCC[C@@H](C(N)=O)NC(=O)[C@H](Cc2c[nH]c3ccccc23)NC(=O)[C@H](CCCNC(=N)N)NC(=O)[C@@H](Cc2ccccc2)NC(=O)[C@H](Cc2c[nH]cn2)NC1=O [gallium-67 labelled]; system = female C57 mice, B16/F1 melanoma, heart; setting = intravenous, 0.037 MBq, 0.5 h; tissue uptake = 1.52 ± 0.28 %ID/g
SMILES = O=C(NCC1OC2CCC=CCCC2O1)c1ccc(COCCOCCOCC[18F])cc1 (stereo not drawn); system = female BALB/c nude mice, kidneys; setting = intravenous, 60 min; tissue uptake = 5 ± 1.7 %ID/g
SMILES = CCCC[C@H](NC(=O)CN1CCC(NC(=O)CN2CCN(CC(=O)O)CCN(CC(=O)O)CCN(CC(=O)O)CC2)CC1)C(=O)N[C@H]1CC(=O)NCCCC[C@@H](C(N)=O)NC(=O)[C@H](Cc2c[nH]c3ccccc23)NC(=O)[C@H](CCCNC(=N)N)NC(=O)[C@@H](Cc2ccccc2)NC(=O)[C@H](Cc2c[nH]cn2)NC1=O [gallium-68 labelled]; system = C57BL/6J mice male B16-F10 tumour, pancreas; setting = 1 h post injection, unblocked; tissue uptake = 0.1 ± 0.1 %ID/g
SMILES = O=C([O-])CN1CCN(CC(=O)[O-])CCN(CC(=O)NCCc2ccc3c(c2)C2C=CCC2C(c2cc4c(cc2Br)OCO4)N3)CCN(CC(=O)[O-])CC1.[111In+3] (stereo not drawn); system = mice with Hec50 tumour xenograft, pituitary; setting = 4 h; tissue uptake = 0.01 %ID/g
SMILES = CN1C(=O)[C@@H](Cc2ccc(O)c(I)c2)NC(=O)CNC(=O)[C@H](Cc2ccc3ccccc3c2)NC(=O)[C@H](CCCNC(=N)N)NC(=O)[C@H]1CCCNC(=O)c1ccc(CNC(=O)CN2CCN(CC(=O)O)CCN(CC(=O)O)CCN(CC(=O)O)CC2)cc1 [lutetium-177 labelled]; test = refers to: 177Lu radioactivity; system = female CB-17 SCID mice, Daudi xenograft, heart; setting = intravenous, 0.16 nmol per mouse, 96 h; tissue uptake = 0.1 ± 0.01 %ID/g

Repeated from above:
SMILES = CCCC[C@H](NC(=O)CNC(=O)CNC(=O)CN1CCN(CC(=O)O)CCN(CC(=O)O)CCN(CC(=O)O)CC1)C(=O)N[C@H]1CC(=O)NCCCC[C@@H](C(N)=O)NC(=O)[C@H](Cc2c[nH]c3ccccc23)NC(=O)[C@H](CCCNC(=N)N)NC(=O)[C@@H](Cc2ccccc2)NC(=O)[C@H](Cc2c[nH]cn2)NC1=O [gallium-67 labelled]; system = female C57 mice, B16/F1 melanoma, bone; setting = intravenous, 0.037 MBq, 4 h; tissue uptake = 0.87 ± 0.09 %ID/g
